Assay results of several laboratories.
Compare with care: the assays were run in different laboratories.

| SMILES | assay | system | setting | measurement | value |
| --- | --- | --- | --- | --- | --- |
| CCc1ccc(CC/C=C/c2ccc3c(c2)C(=O)CC3)cc1 |  | Sprague-Dawley rat, male, serum | oral, 120 mg/kg/day, 14 days | potassium | 4.91 mM |
| CCN1CCN(Cc2ccc(Nc3ncc(F)c(-c4cc(F)c5nc6n(c5c4)[C@H](C)CCC6)n3)nc2)CC1 |  | advanced solid tumour patients | dose not given, Phase Ia monotherapy | Vomiting incidence, grade ≥3 | 4.2% |
| Clc1ccc(Cl)c(-c2cc(Cl)ccc2Cl)c1 |  | Sprague Dawley rat, liver | intraperitoneal, 1 mg/kg | organ weight | 7.31 g |
| C[C@@H](NC(=O)N1C(=O)[C@H](Cc2ccnc(N)c2)[C@H]1C(=O)O)C1CCCCC1 |  | healthy Chinese adult volunteers | continuous intravenous infusion, dose not given, 5.0 days, CTCAE 5.0, all doses | urine erythrocyte positive | 2.5% |
| COc1ccc2nc3cc(Cl)ccc3c(Nc3cc(CN4CCCC4)c(O)c(CN4CCCC4)c3)c2n1 |  | mouse, blood | intraperitoneal, 28 mg/kg | creatinine level | 24.5 µmol/L |
| COc1ncccc1-c1cnn2ccc(N3CCN(C(=O)OC(C)C)CC3)nc12 |  | rat, CCI cold allodynia model, plasma | oral, 10 mg/kg, 240 min | drug concentration | 1090 nM |
| CC(C)C[C@@H](NC(=O)[C@H](Cc1ccccc1)NC(=O)CNC(=O)[C@@H](C)NC(=O)[C@H](Cc1ccc(O)cc1)NC(=O)[C@@H]1CCCN1C(=O)[C@@H]1CCCN1C(=O)c1ccc[n+](C)c1)C(=O)O |  | rat medulla oblongata homogenate | 100 µM | half-life | > 1 h |
| CO[C@H]1C[C@@H]2CC[C@@H](C)[C@@](O)(O2)C(=O)C(=O)N2CCCC[C@H]2C(=O)O[C@H]([C@H](C)C[C@@H]2CC[C@@H](OC(=O)NCCOCCOCCOCCOCCOCCOCCOCCOCCC(=O)N3CCc4cc(Cn5nc(-c6ccc7oc(N)nc7c6)c6c(N)ncnc65)ccc4C3)[C@H](OC)C2)C[C@@H](O)[C@H](C)/C=C(\C)[C@@H](O)[C@@H](OC)C(=O)[C@H](C)C[C@H](C)/C=C/C=C/C=C/1C |  | patients with advanced solid tumours | intravenous, 10 mg weekly, any grade | vomiting incidence | 12.5% |
| O=C(Nc1ccccc1)C1CCN(C(=O)Oc2cccnc2)CC1 | adverse event reporting | healthy women | oral, 60 mg, 7 days | subjects with feeling drunk | 21.4% |
| NCCCC[C@@H]1NC(=O)[C@@H](Cc2c[nH]c3ccccc23)NC(=O)[C@H](c2ccccc2)NC(=O)[C@@H]2C[C@@H](OC(=O)NCCN)CN2C(=O)[C@H](Cc2ccccc2)NC(=O)[C@H](Cc2ccc(OCc3ccccc3)cc2)NC1=O |  | healthy human volunteers | 600 µg twice daily | subjects with dry mouth | 0% |
| CC(C)CC(=O)OC[C@H]1O[C@@](C#N)(c2ccc3c(N)ncnn23)[C@H](O)[C@@H]1O |  | dog plasma | 9 µM | fraction unbound | 0.278 |
| Cc1cn([C@H]2O[C@@H](CO[P@@](=O)(N[C@@H](C)C(=O)OC(C)C)Oc3ccccc3)[C@H](O)[C@H]2F)c(=O)[nH]c1=O | refers to: external ear pain | human | 25 mg | patients with TEAE | 0% |
| COc1ccc(-c2c(-c3ccc(C#N)c(F)c3)nc(N3CCC(N)CC3)n(C)c2=O)cc1F | refers to: decreased appetite | neuroendocrine neoplasm patients | oral, 60 mg, dose expansion | grade 3-4 TRAE incidence | 0% |
| COc1cc2c(Oc3ccc4[nH]c(C)cc4c3F)ccnc2cc1OCC1(N)CC1 |  | paediatric recurrent refractory sarcoma | 8 mg/kg | grade 1 or 2 Headache | 20% |

Some of these lines once more:
| SMILES | assay | system | setting | measurement | value |
| --- | --- | --- | --- | --- | --- |
| COc1ccc2nc3cc(Cl)ccc3c(Nc3cc(CN4CCCC4)c(O)c(CN4CCCC4)c3)c2n1 |  | mouse, blood | intraperitoneal, 28 mg/kg | creatinine level | 24.5 µmol/L |
| COc1ncccc1-c1cnn2ccc(N3CCN(C(=O)OC(C)C)CC3)nc12 |  | rat, CCI cold allodynia model, plasma | oral, 10 mg/kg, 240 min | drug concentration | 1090 nM |
